Experimental data collected from several papers.
Compare with care: the assays were run in different laboratories. Numbers after ± are the reported error.

Structure (SMILES)	test system	setting	scale	fluorescence quantum yield
Nc1ncnc2c1nc(-n1nnc3c1CCC1C(CO)C1CC3)n2C1OC(CO)C(O)C1O (mixture of isomers)				0.6%
Cc1ccc(C(C)C)cc1.[C-]#[O+].[C-]#[O+].[C-]#[O+].[Cl-].[Cl-].[Cl-].[Re+].[Ru+2].c1cnc(-c2ncccn2)nc1	10% DMSO		relative to: quinine sulfate	0.0095
NCCC(=O)N1Cc2ccccc2-c2c(nnn2-c2nc(N)c3ncn(C4OC(CO)C(O)C4O)c3n2)-c2ccccc21 (mixture of isomers)	methanol		relative to: quinine sulfate	0.106
COCCOCCOCCOCCOCCOCCOCCOCCOCCOCCOCCOCCNC(=O)CCC1(Cc2ccccc2)c2ccccc2-c2ccc(-c3sc(-c4c5c(c(-c6sc(-c7ccc8c(c7)C(CCC(=O)NCCOCCOCCOCCOCCOCCOCCOCCOCCOCCOCCOCCOC)(Cc7ccccc7)c7ccccc7-8)c7c6OCCO7)c6nsnc46)N=S=N5)c4c3OCCO4)cc21 (stereo not drawn)	aqueous solution		relative to: IR-26 in 1,2-dichloroethane	0.82%
Nc1ncnc2c1nc(-n1nnc3c1CCC1C(CO)C1CC3)n2C1CC(O)C(CO)O1 (mixture of isomers)	methanol		relative to: quinine sulfate	0.014
CC1=CC(C)=[N+]2C1=C(CCCC(=O)NCCCCCC(=O)NCCCCCC(=O)NCCCC[C@H](NC(=O)N[C@@H](CCC(=O)O)C(=O)O)C(=O)O)c1c(C)cc(C)n1[B-]2(F)F	acetonitrile/water			81 ± 5%
CCOC(=O)c1[nH]c(C)c(/C=C/c2c(I)c(C)c3n2[B-](F)(F)[N+]2=C(C)C(I)=C(C)C2=C3c2cc(OC)cc(OC)c2)c1C	DMSO		relative to: methylene blue	0.23
COC(=O)c1ccc(CCc2cc3cc4nc(c(OC)c5[nH]c(cc6nc(cc2[nH]3)CC6(C)C)cc5CCCNC(=O)OC(C)(C)C)C(=O)C4(C)C)cc1	DMF	room temperature		0.2
CC1=CC(C)=[N+]2C1=C(c1ccc(C[P+](C3CCCCC3)(C3CCCCC3)C3CCCCC3)cc1)c1c(C)cc(C)n1[B-]2(F)F	PBS	10 µM, pH 7.4, 298 K, added: fluorescein standard		0.6
COCCOCCOCCOCCC(=O)NCc1cc(CNC(=O)CCOCCOCCOCCOC)cc(-c2cc3cc4nc(c(-c5ccc(CCC(=O)O)cc5)c5[nH]c(cc6nc(c(OC)c2[nH]3)CC6(C)C)cc5-c2cc(CNC(=O)CCOCCOCCOCCOC)cc(CNC(=O)CCOCCOCCOCCOC)c2)CC4(C)C)c1	water with 5% DMF	room temperature		0.098
COc1cc(OC)cc(C2=C3C(C)=C(I)C(/C=C/c4c[nH]c5ccc([N+](=O)[O-])cc45)=[N+]3[B-](F)(F)n3c(/C=C/c4c[nH]c5ccc([N+](=O)[O-])cc45)c(I)c(C)c32)c1	DMSO		relative to: methylene blue	0.02
CC1=CC(C)=[N+]2C1=C(c1ccc(C[P+](c3ccccc3)(c3ccccc3)C3CCCCC3)cc1)c1c(C)cc(C)n1[B-]2(F)F	PBS	10 µM, pH 7.4, 298 K, added: fluorescein standard		0.62
CCN(CC)C(=O)c1ccc(-c2c3ccc(=[N+](C)C)cc-3sc3cc4c(cc23)C(C)(C)CCN4C)s1	methanol	added: excitation 532 nm		0.09 ± 0.01
COc1cc(/C=C2\SC(=S)NC2=O)cc(OC)c1O	PBS	free ligand		0.11%
CC1=CC(C)=[N+]2C1=C(CCCC(=O)O)c1c(C)cc(C)n1[B-]2(F)F	acetonitrile/water			75 ± 5%
OC(Cc1cc(-c2ccc(C(O)C(F)(F)F)s2)sc1-c1ccc(-c2sc(-c3ccc(C(O)C(F)(F)F)s3)cc2CC(O)C(F)(F)F)s1)C(F)(F)F (stereo not drawn)	DMSO		relative to: fluorescein in NaOH	0.27
COC(=O)c1cc(=O)n(C)c2c(-c3ccc(OC)cc3)csc12	dichloromethane	10 µM		0%
COc1ccc(/C=C/c2ccc(-c3ccc(C)cn3)nc2)cc1	DMF	added: quinine bisulfate reference		0.37
CCn1cc(/C=C/c2sc3ccccc3[n+]2CC)c2ccccc21	DMSO		relative to: fluorescein	0.009
COCCOCCOCCOCCOCCOCCOCCOCCC(=O)NCCCc1cc2cc3nc(cc4[nH]c(cc5nc(c(OC)c1[nH]2)C(=O)C5(C)C)cc4CCc1ccc(C(=O)O)cc1)CC3(C)C	water with 5% DMF	room temperature		0.075
CCn1cc(/C=C/c2ccc3ccccc3[n+]2CC)c2ccccc21	methanol		relative to: fluorescein	0.037
CCN(CC)C(=S)c1ccc(-c2c3ccc(=[N+](C)C)cc-3sc3cc4c(cc23)C(C)(C)CCN4C)s1	methanol	added: excitation 532 nm		0.07 ± 0.01
COCCOCCOCCOCCOCCOCCOCCOCCOCCOCCOCCOCCOCCOCCOCCOCCOCCOCCOCCOCCOCCOCCNC(=O)CCC1(Cc2ccccc2)c2ccccc2-c2ccc(-c3sc(-c4c5c(c(-c6sc(-c7ccc8c(c7)C(CCC(=O)NCCOCCOCCOCCOCCOCCOCCOCCOCCOCCOCCOCCOCCOCCOCCOCCOCCOCCOCCOCCOCCOCCOC)(Cc7ccccc7)c7ccccc7-8)c7c6OCCO7)c6nsnc46)N=S=N5)c4c3OCCO4)cc21 (stereo not drawn)	aqueous solution		relative to: IR-26 in 1,2-dichloroethane	0.98%
CCOC(=O)c1[nH]c(C)c(/C=C/C2=[N+]3C(=C(c4cc(OC)cc(OC)c4)c4c(C)c(I)c(/C=C/c5c(C)[nH]c(C(=O)OCC)c5C)n4[B-]3(F)F)C(C)=C2I)c1C	dichloromethane		relative to: methylene blue	0.1
COc1ccc2cc(-c3ccc(-c4ccc(C)cn4)nc3)oc2c1	DMSO	added: quinine bisulfate reference		0.82
COc1cc(OC)cc(C2=C3C(C)=C(I)C(/C=C/c4cccs4)=[N+]3[B-](F)(F)n3c(/C=C/c4cccs4)c(I)c(C)c32)c1	DMSO		relative to: methylene blue	0.01
COc1cc2oc(=O)cc(CO)c2cc1OC	PBS/DMSO 90:10 v/v	about 1 µM, pH 8.0		85.3 ± 0.6%
COc1cc(OC)cc(C2=C3C(C)=C(I)C(C)=[N+]3[B-](F)(F)n3c(/C=C/c4cccs4)c(I)c(C)c32)c1	dichloromethane		relative to: methylene blue	0.4
Nc1nc(-n2nnc3c2CCC2C(CO)C2CC3)nc2c1ncn2C1OC(CO)C(O)C1O (mixture of isomers)	methanol		relative to: quinine sulfate	0.02
CCCCCCCCCCCCCCCC(=O)OCC(COP(=O)([O-])OCC[N+](C)(C)Cc1cn(-c2cc3ccc(OC(=O)Oc4ccc(CCC(=O)C(F)(F)F)cc4)cc3oc2=O)nn1)OC(=O)CCCCCCCCCCCCCCC (stereo not drawn)	ethanol		relative to: coumarin 343	0.09

A few entries again:
Structure (SMILES)	test system	setting	scale	fluorescence quantum yield
Nc1ncnc2c1nc(-n1nnc3c1CCC1C(CO)C1CC3)n2C1OC(CO)C(O)C1O (mixture of isomers)				0.6%
Cc1ccc(C(C)C)cc1.[C-]#[O+].[C-]#[O+].[C-]#[O+].[Cl-].[Cl-].[Cl-].[Re+].[Ru+2].c1cnc(-c2ncccn2)nc1	10% DMSO		relative to: quinine sulfate	0.0095
NCCC(=O)N1Cc2ccccc2-c2c(nnn2-c2nc(N)c3ncn(C4OC(CO)C(O)C4O)c3n2)-c2ccccc21 (mixture of isomers)	methanol		relative to: quinine sulfate	0.106
